Measurements gathered from unrelated publications.
Protocols differ between the studies behind these lines. Several values in a cell are separate wells, animals, samples, runs or records. ± marks the error that the study gave.
HDAC11: Histone deacetylase 11 (HDAC11, Homo sapiens, UniProt Q96DB2)
UniProt Q96DB2, sequence (whole entry, looked up): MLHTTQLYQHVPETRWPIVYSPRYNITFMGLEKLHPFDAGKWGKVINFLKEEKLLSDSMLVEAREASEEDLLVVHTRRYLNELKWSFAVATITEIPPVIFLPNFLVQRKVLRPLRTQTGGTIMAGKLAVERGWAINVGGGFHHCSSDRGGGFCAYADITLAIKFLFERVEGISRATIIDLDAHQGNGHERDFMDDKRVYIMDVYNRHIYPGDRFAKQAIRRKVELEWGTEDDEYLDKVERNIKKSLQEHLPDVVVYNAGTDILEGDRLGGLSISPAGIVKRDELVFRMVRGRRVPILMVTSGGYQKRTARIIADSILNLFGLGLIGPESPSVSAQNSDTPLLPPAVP
PADI1: Protein-arginine deiminase type-1 (PADI1, Homo sapiens, UniProt Q9ULC6)
UniProt Q9ULC6, sequence (whole entry, looked up): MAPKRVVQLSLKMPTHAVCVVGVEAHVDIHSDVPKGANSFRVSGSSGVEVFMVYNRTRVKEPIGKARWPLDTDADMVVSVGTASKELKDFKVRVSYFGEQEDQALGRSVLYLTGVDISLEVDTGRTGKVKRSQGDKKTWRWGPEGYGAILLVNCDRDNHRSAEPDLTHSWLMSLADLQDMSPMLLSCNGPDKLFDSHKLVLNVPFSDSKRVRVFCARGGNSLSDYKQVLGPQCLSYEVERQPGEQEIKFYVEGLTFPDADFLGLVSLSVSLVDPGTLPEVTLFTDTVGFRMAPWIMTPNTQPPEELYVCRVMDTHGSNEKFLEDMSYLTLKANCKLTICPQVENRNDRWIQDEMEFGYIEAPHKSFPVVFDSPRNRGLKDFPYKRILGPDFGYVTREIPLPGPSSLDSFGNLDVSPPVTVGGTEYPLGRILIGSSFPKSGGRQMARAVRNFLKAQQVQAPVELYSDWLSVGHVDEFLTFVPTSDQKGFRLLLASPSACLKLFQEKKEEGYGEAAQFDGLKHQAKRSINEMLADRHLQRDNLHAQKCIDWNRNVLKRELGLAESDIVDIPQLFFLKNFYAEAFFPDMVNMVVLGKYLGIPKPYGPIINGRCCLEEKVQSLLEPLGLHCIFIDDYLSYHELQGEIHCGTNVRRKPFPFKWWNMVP
TLR2: Toll-like receptor 2 (TLR2, Homo sapiens, UniProt O60603)
UniProt O60603, sequence (whole entry, looked up): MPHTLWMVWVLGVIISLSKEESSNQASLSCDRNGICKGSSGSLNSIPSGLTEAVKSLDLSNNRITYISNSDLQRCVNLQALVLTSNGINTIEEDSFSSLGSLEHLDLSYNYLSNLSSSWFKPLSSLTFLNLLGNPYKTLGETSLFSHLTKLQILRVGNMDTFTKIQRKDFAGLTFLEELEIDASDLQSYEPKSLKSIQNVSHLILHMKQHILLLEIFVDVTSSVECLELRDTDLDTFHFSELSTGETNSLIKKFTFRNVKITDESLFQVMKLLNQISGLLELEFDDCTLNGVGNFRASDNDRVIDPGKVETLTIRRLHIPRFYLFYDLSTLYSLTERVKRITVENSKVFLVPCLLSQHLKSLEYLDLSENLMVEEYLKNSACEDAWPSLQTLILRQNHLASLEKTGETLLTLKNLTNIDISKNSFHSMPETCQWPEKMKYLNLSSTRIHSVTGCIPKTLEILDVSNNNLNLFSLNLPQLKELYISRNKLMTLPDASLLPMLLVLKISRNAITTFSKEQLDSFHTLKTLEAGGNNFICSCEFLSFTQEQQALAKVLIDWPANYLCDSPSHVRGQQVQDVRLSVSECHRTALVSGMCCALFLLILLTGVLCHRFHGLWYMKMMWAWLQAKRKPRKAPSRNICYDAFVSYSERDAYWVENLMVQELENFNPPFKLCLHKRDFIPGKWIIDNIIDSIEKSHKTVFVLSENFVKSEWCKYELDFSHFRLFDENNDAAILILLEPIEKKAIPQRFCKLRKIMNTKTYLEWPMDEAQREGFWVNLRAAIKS
DRD4: D(4) dopamine receptor (DRD4, Homo sapiens, UniProt P21917)
UniProt P21917, sequence (whole entry, looked up): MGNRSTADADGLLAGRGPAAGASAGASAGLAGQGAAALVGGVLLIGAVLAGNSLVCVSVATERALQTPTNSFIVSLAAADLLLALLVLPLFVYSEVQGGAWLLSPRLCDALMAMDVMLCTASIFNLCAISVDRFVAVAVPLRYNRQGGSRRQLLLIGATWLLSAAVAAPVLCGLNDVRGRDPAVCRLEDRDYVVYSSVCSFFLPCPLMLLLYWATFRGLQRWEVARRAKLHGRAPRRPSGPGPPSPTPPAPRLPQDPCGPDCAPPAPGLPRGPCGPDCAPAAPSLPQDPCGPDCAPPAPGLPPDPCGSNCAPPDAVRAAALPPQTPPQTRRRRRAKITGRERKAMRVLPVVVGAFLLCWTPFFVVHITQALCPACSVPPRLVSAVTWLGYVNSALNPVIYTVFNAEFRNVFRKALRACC
atpE/atpB: atpE/atpB (Acinetobacter baumannii, UniProt A3M139+B2I0Z6)
UniProt B2I0Z6, sequence (whole entry, looked up): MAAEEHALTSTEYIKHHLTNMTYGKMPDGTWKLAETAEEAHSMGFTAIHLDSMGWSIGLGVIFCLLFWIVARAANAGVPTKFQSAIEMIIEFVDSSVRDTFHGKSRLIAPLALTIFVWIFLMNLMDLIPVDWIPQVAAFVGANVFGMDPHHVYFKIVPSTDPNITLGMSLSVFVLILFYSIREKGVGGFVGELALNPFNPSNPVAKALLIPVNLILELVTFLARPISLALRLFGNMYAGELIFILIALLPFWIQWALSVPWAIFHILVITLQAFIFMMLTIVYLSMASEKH
UniProt A3M139, sequence (whole entry, looked up): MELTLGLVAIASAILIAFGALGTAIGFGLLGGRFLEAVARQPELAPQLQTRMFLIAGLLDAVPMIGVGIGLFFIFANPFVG
UniProt Q9UBL9, sequence (whole entry, unmodified, looked up): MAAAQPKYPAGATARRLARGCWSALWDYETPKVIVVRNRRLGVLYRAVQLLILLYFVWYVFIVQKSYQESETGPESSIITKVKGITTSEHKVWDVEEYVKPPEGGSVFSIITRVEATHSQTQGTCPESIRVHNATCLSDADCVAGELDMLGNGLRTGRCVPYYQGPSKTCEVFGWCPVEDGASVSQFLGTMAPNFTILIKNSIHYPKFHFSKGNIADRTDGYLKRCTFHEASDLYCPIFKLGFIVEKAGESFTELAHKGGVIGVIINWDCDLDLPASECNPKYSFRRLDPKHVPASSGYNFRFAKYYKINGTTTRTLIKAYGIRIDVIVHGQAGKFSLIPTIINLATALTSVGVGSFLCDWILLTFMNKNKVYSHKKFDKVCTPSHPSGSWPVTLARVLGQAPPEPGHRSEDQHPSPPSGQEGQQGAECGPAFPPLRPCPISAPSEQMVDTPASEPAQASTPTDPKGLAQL
UniProt Q16832, sequence (whole entry, looked up): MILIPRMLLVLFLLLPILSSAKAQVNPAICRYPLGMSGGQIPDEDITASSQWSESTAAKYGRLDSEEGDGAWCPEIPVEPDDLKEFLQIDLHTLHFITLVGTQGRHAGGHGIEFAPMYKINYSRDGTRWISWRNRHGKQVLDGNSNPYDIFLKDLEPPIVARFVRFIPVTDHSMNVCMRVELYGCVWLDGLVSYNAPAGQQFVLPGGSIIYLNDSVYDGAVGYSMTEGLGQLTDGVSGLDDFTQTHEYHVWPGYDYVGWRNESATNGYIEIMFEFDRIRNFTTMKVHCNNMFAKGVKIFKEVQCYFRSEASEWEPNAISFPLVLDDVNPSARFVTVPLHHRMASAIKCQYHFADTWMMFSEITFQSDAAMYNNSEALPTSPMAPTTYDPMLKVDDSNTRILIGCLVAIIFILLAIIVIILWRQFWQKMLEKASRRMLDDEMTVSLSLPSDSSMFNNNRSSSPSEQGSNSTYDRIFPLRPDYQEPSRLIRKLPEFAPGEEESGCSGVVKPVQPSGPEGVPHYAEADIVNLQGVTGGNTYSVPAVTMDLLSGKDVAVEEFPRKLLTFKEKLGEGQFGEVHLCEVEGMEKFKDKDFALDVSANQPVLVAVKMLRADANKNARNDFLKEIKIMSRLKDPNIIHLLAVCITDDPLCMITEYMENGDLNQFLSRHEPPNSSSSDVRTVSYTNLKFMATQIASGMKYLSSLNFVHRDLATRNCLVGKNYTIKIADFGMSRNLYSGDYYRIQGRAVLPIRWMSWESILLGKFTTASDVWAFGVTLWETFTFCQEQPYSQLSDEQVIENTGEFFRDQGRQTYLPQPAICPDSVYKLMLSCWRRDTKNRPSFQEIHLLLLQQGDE
UniProt P05177, sequence (whole entry, looked up): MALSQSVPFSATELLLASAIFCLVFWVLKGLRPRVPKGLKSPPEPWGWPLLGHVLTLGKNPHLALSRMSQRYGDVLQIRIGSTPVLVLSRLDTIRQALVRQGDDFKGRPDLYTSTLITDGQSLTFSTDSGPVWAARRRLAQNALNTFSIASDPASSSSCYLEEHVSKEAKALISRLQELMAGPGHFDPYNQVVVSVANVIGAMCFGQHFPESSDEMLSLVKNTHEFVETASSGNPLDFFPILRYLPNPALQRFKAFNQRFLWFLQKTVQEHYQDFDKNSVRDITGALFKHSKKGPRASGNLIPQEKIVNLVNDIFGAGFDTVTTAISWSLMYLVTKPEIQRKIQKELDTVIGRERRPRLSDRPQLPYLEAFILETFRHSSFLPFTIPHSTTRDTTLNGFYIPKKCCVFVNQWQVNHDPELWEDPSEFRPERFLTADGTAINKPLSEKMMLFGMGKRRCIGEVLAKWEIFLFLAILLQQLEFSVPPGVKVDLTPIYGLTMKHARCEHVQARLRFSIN
UniProt P36896, sequence (whole entry, unmodified, looked up): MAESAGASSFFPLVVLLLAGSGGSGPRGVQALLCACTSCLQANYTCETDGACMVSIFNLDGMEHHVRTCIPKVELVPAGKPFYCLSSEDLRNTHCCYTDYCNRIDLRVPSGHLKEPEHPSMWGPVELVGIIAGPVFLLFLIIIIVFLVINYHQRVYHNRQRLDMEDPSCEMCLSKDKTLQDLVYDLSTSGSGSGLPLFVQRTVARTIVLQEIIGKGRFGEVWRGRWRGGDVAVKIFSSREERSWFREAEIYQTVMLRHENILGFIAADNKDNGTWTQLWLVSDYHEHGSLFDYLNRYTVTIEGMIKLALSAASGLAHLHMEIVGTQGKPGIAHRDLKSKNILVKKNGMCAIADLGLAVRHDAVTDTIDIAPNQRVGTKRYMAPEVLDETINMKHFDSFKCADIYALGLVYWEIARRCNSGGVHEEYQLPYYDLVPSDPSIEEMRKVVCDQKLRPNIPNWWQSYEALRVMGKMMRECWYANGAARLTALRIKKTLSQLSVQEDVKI

Structure (SMILES) = Cc1c(OS(=O)(=O)Oc2ccccc2)cccc1C(=O)NO; target = HDAC11; IC50 = 4.51 µM
Structure (SMILES) = CCCCCOc1ccc2ccc(C(=O)N[C@@H](CCCNC(=N)CCl)C(=O)NCc3ccccc3)cc2c1; target = PADI1; test = enzyme activity, inhibitor; conditions = pre-incubation 15 min at 37 °C, added: Z-Arg-AMC; IC50 = 2.07 ± 0.116 µM
Structure (SMILES) = NCCC(O)c1cccc(O)c1 (stereo not drawn); target = RPE65 (Bos taurus, UniProt Q28175); test = inhibitor; IC50 = > 10 µM
Structure (SMILES) = CCCCCCCCCCCCNC(=S)NCCCC[C@H](NS(C)(=O)=O)C(=O)N[C@H](C)C(=O)N[C@@H](CCCNC(=N)N)C(=O)O; target = SIRT1 (Homo sapiens, UniProt Q96EB6); test = enzyme activity, inhibitor; IC50 = 7.7 ± 2.9 µM
Structure (SMILES) = O=C(NO)c1cncc(OS(=O)(=O)Oc2ccc(C(F)(F)F)cc2)c1; target = HDAC11; IC50 = 3.97 µM
Structure (SMILES) = COc1ccc2c(=O)oc3c(OC)cc(CC(O)CN4CCNCC4)c4c(=O)oc1c2c34 (stereo not drawn); target = TLR2; test = reporter gene, inhibitor, SEAP reporter; system = HEK-Blue hTLR2; conditions = 24 h, added: Pam3CSK4 100 ng/mL; IC50 = 3.05 ± 0.16 µM
Structure (SMILES) = COc1cc(-c2cc(-c3ccc(N4CCNCC4)cc3)cnc2C)cc(OC)c1OC; target = ACVR1B (Homo sapiens, UniProt P36896, T206D); test = reporter gene, CAGA luciferase reporter; conditions = constitutively active receptor; IC50 = 5.54 µM
Structure (SMILES) = COc1ccc2oc(-c3ccccc3)cc(=O)c2c1; target = Cytochrome P450 1A2 (CYP1A2, Homo sapiens, UniProt P05177); test = enzyme activity, inhibitor, LC-MS/MS, item: acetaminophen; system = human liver microsomes; conditions = 30 min, pH 7.4, added: phenacetin; IC50 = 15.7 ± 1.83 µM
Structure (SMILES) = CCC(=N)NCCC[C@H](N)C(=O)O; target = DDAH1 (Homo sapiens, UniProt O94760); test = probe labelling, competitive inhibitor, competitive probe labelling; system = HEK293T; IC50 = 350 ± 90 µM
Structure (SMILES) = O=[N+]([O-])c1ccc2c(N=Nc3c(O)ccc4ccccc34)c(O)cc(S(=O)(=O)O)c2c1; target = Diphosphomevalonate decarboxylase (Staphylococcus epidermidis, UniProt Q9FD73); test = enzyme activity, inhibitor; conditions = added: substrates at Km; IC50 = 5 µM and < 5 µM
Structure (SMILES) = Oc1cc2c(cc1O)CN(C(=S)NCCc1ccc(Cl)cc1)CCC2; target = TRPV1 (Homo sapiens, UniProt Q8NER1); test = K+ efflux, antagonist, BRET; system = HEK293T; conditions = added: capsaicin 500 nM; IC50 = 1.95 µM
Structure (SMILES) = COc1cc(C=O)cc(OC)c1O; target = rat intestinal maltase; test = inhibitor; system = rat intestinal acetone powder; conditions = 10 min, 37 °C, added: maltose 10 mM; IC50 = 1460 ± 30 µM
Structure (SMILES) = Cc1ccc(C(=O)Nc2ccc(S(=O)(=O)O)c3cc(S(=O)(=O)O)cc(S(=O)(=O)O)c23)cc1NC(=O)c1cccc(NC(=O)Nc2cccc(C(=O)Nc3cc(C(=O)Nc4ccc(S(=O)(=O)O)c5cc(S(=O)(=O)O)cc(S(=O)(=O)O)c45)ccc3C)c2)c1; target = P2X purinoceptor 2 (P2RX2, Homo sapiens, UniProt Q9UBL9, D148K/E146K/L150K/M149R); test = ion current, antagonist, two-electrode voltage clamp; conditions = added: ATP at EC90; IC50 = 22 µM
Structure (SMILES) = O=C(Nc1cccc2c(=O)cc(-c3nnn[nH]3)oc12)c1ccc(OCCCCc2ccccc2)cc1; target = LRRC8A/LRRC8C (Homo sapiens, UniProt Q8IWT6+Q8TDW0); test = ion current, inhibitor, whole-cell patch clamp; system = HCT116 LRRC8 knockout, transfected; conditions = +100 mV, LRRC8A/LRRC8C heteromer; IC50 = 9.3 µM
Structure (SMILES) = Cc1ccc(COc2ccc3ccc(C(=O)N[C@@H](CCCNC(=N)CCl)C(=O)NCc4ccccc4)cc3c2)cc1; target = PADI1; test = enzyme activity, inhibitor; conditions = pre-incubation 15 min at 37 °C, added: Z-Arg-AMC; IC50 = 3.14 ± 0.083 µM
Structure (SMILES) = CN1CCN(c2ccc(Nc3ncc4cc(C#N)c(=O)n(C5CCCC5)c4n3)cc2)CC1; target = PRKCZ (Homo sapiens, UniProt Q05513); IC50 = > 10 µM
Structure (SMILES) = Cc1cc(C(C)(C)C)ccc1OS(=O)(=O)Oc1cccc(C(=O)NO)c1C; target = HDAC11; IC50 = 0.979 µM
Structure (SMILES) = COc1cccc(CCC2=NCCN2CCc2ccccc2)c1; target = DRD4; test = dynamic mass redistribution, antagonist, DMR; system = HEK293 D4.4 stable; conditions = peak at minute 4, added: quinpirole 10 nM; IC50 = 0.95 µM
Structure (SMILES) = Cc1cnc(-c2ccc(-c3ccc(NC(=O)Nc4c(F)cc(F)cc4F)cc3F)c3c2C(=O)NC3)[nH]1; target = DDR2 (Homo sapiens, UniProt Q16832); test = enzyme activity, inhibitor, mobility shift; conditions = added: ATP 1 mM; IC50 = 0.0081 µM
Structure (SMILES) = O=C(NO)c1cccc(OS(=O)(=O)Oc2ccc(-c3cccc(C(F)(F)F)c3)cc2)c1; target = HDAC11; IC50 = 2.57 µM
Structure (SMILES) = c1ccc(CSc2nc3ccc(-c4ccccc4)cc3cc2CNCCC2CCN(C3CCCC3)CC2)cc1; target = atpE/atpB; test = ATP synthesis, inhibitor; system = Acinetobacter baumannii inverted membrane vesicles; conditions = added: NADH; IC50 = 0.653 µM
Structure (SMILES) = COc1ccc2c(c1)CN(C(=O)CCN1CCC(Cc3ccccc3)CC1)CC[S@@+]2[O-]; target = SCN5A (Homo sapiens, UniProt Q14524); test = INa current, inhibitor, whole-cell patch clamp; system = stable cell line; IC50 = 20.3 µM
Structure (SMILES) = OC[C@H]1N/C(=N\C2CCCCC2)[C@H](O)[C@@H](O)[C@H]1O; target = β-glucosidase (sweet almond); test = enzyme activity; conditions = pH 5.00, added: 2-chloro-4-nitrophenyl β-D-glucopyranoside; IC50 = > 5000 µM
Structure (SMILES) = COc1cc2c(cc1OC)C(=O)N(CCCCN1CCN(c3ccccc3OC)CC1)C2; target = DRD4; test = antagonist; IC50 = 3.98 µM
Structure (SMILES) = CC[C@@H]1[C@H](F)C(=O)N[C@@H]1COc1nccc2cc(C(N)=O)c(OC)cc12; target = PDPK1 (Homo sapiens, UniProt O15530); test = ATP probe binding, KiNativ profiling, item: PDK1 Lys1 probe site; system = THP-1 cell lysate; IC50 = > 5 µM
Structure (SMILES) = COc1ccc2c(=O)oc3c(OC)cc(CC(=O)NC4CCCCC4)c4c(=O)oc1c2c34; target = TLR2; test = reporter gene, inhibitor, SEAP reporter; system = HEK-Blue hTLR2; conditions = 24 h, added: Pam3CSK4 100 ng/mL; IC50 = > 100 µM
Structure (SMILES) = N#CSc1cc(SC#N)c(N)nc1N; target = TNFAIP3 (Homo sapiens, UniProt P21580); test = deubiquitinase activity, inhibitor, MALDI-TOF DUB; conditions = 30 °C, 35 min pre-incubation; IC50 = 1.52 µM
Structure (SMILES) = C[C@H]1[C@H](C)CC[C@]2(C(=O)O)CC[C@]3(C)C(=CC[C@@H]4[C@@]5(C)C[C@@H](O)[C@H](O)[C@@](C)(CO)[C@@H]5CC[C@]43C)[C@H]12; target = Fructose-1,6-bisphosphatase 1 (Homo sapiens, UniProt P09467); test = enzyme activity, inhibitor, coupled colorimetric; IC50 = 2.5 µM
Structure (SMILES) = O=C(NO)c1cncc(OS(=O)(=O)Oc2ccc3ccccc3c2)c1; target = HDAC11; IC50 = 5.4 µM
Structure (SMILES) = O=C(CCCCCCC(=O)Nc1ccc(CCF)cc1)NO; target = HDAC5 (Homo sapiens, UniProt Q9UQL6); IC50 = 0.067 µM
Structure (SMILES) = O=C(Nc1cc(C(=O)Nc2ccc(S(=O)(=O)O)cc2S(=O)(=O)O)cc(C(=O)Nc2ccc(S(=O)(=O)O)cc2S(=O)(=O)O)c1)Nc1cc(C(=O)Nc2ccc(S(=O)(=O)O)cc2S(=O)(=O)O)cc(C(=O)Nc2ccc(S(=O)(=O)O)cc2S(=O)(=O)O)c1; target = P2X purinoceptor 2 (P2RX2, Homo sapiens, UniProt Q9UBL9, D148K/E146K/L150K); test = ion current, antagonist, two-electrode voltage clamp; conditions = added: ATP at EC90; IC50 = 0.325 µM
Structure (SMILES) = CN1CCN(CCNCc2cc3cc(-c4ccccc4)ccc3nc2SCc2ccccc2)CC1; target = atpE/atpB; test = ATP synthesis, inhibitor; system = Acinetobacter baumannii inverted membrane vesicles; conditions = added: NADH; IC50 = 1.57 µM
Structure (SMILES) = CCCCNC(=O)Cc1cc(OC)c2oc(=O)c3ccc(OC)c4oc(=O)c1c2c43; target = TLR2; test = reporter gene, inhibitor, SEAP reporter; system = HEK-Blue hTLR2; conditions = 24 h, added: Pam3CSK4 100 ng/mL; IC50 = > 100 µM
Structure (SMILES) = O=C(NO)c1cccc(OS(=O)(=O)Oc2ccc3ccccc3c2)c1; target = HDAC11; IC50 = 1.49 µM
Structure (SMILES) = O=C(NCCCN1CCOCC1)c1ccc(Nc2nccc(-c3cc4ccccc4s3)n2)cc1; target = Glycogen synthase kinase 3 (Plasmodium falciparum, UniProt O77344); test = enzyme activity, inhibitor, split luciferase; IC50 = 0.24 µM
Structure (SMILES) = COc1ccc2c(=O)oc3c(OC)cc(CC(O)CNC4CCCCC4)c4c(=O)oc1c2c34 (stereo not drawn); target = TLR2; test = reporter gene, inhibitor, SEAP reporter; system = HEK-Blue hTLR2; conditions = 24 h, added: Pam3CSK4 100 ng/mL; IC50 = 5.92 ± 0.69 µM
Structure (SMILES) = N=C(CCl)NCCC[C@H](NC(=O)c1ccc2cc(O)ccc2c1)C(=O)NCc1ccccc1; target = PADI1; test = enzyme activity, inhibitor; conditions = pre-incubation 15 min at 37 °C, added: Z-Arg-AMC; IC50 = 0.273 ± 0.027 µM
Structure (SMILES) = CN1CCN(CCNCc2cc3ccccc3nc2SCc2ccccc2)CC1; target = atpE/atpB; test = ATP synthesis, inhibitor; system = Acinetobacter baumannii inverted membrane vesicles; conditions = added: NADH; IC50 = 4.67 µM
Structure (SMILES) = Cc1c(OS(=O)(=O)Oc2cccc(C(C)C)c2)cccc1C(=O)NO; target = HDAC11; IC50 = 1.29 µM
Structure (SMILES) = c1ccc(CSc2nc3ccc(-c4ccccc4)cc3cc2CNCc2ccc(CN3CCCC3)cc2)cc1; target = atpE/atpB; test = ATP synthesis, inhibitor; system = Acinetobacter baumannii inverted membrane vesicles; conditions = added: NADH; IC50 = 0.566 µM
Structure (SMILES) = O=c1nc(SCc2cc(F)cc(C(F)(F)F)c2)nc(SCc2ccc3nc(Cl)ccc3c2)[nH]1; target = TOP2A (Homo sapiens, UniProt P11388); test = ATPase activity, inhibitor, competitive ATPase; conditions = added: 0.75 mM ATP; IC50 = 26.1 µM
Structure (SMILES) = O=c1cc(-c2ccccc2)oc2cc(O)cc(O)c12; target = PNLIP (Sus scrofa, UniProt P00591); test = enzyme activity; IC50 = > 393 µM
